Measurements from different studies.
Each numbered part is a random draw from the data of one study; scales do not carry over between parts. Substitutions count along the parent as printed.

Series 1 — technique: RNA Bind-n-Seq; molecule type: RNA; medium: in vitro; concentration: 200 nM; setting: whole 134-nt RNA, ends assumed; with: 150 mM LiCl; baseline: input library; direction: higher = stronger binding; library: 7-deaza-guanosine replaces G
Target: Fragile X messenger ribonucleoprotein 1, C-terminal low-complexity region (Fmr1, Mus musculus, UniProt P35922)
For `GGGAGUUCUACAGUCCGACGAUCCAAGUCCUGUGCUACACAUCGUAUGUACCGAAUCGGAAAGGAAAGGAAAAAAAGGAAAGUAUUAUGUUACGCCGUUCGGAUCUGCACUUCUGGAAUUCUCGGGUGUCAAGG`, the log2 enrichment was -0.347.
`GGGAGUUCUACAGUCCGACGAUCUCCUGUGCUACACAUCGUAUGUACCGAAUCGGGUUUUUUUGGGAAAAAGGGAAAAAGGGAAAGUAUUAUGUUACGCCGUUCGGAUCUGCAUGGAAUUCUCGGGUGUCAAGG` gave a log2 enrichment of -1.69.
`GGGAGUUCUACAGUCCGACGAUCCUCCUGGAGUGGAUCCGGCGCACCAUCCCCUGGCUGGAGGACCGUGUGCCCCAAAAGACUAUCCAGGAGAUGCAGCAGAAGCUGGAGGACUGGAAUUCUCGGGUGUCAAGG` gave a log2 enrichment of -4.27.
`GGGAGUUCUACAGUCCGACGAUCAGUCCUGUGCUACACAUCGUAUGUACCGAAUCGGGGAAAAAGGGGAGGGGUUUGGGGAAAGUAUUAUGUUACGCCGUUCGGAUCUGCACUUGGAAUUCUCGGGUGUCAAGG` gave a log2 enrichment of -0.714.
With `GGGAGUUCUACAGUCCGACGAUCUAACUUUAGAGGAGGAUCAGAUGGAUAUGGCAGUGGACGUGGAUUUGGGGAUGGCUAUAAUGGGUAUGGAGGAGGACCUGGAGGUGGCAAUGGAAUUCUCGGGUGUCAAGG` the log2 enrichment was 0.435.
`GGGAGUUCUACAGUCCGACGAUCCAAGUCCUGUGCUACACAUCGUAUGUACCGAAUCGGGGUUUGGUUUGGUUUGGGGAAAGUAUUAUGUUACGCCGUUCGGAUCUGCACUUCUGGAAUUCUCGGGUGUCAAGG` has a log2 enrichment of -0.866.
For `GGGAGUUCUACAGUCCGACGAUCUCAAGUCCUGUGCUACACAUCGUAUGUACCGAAUCGGGUGGGAAAAAGGGUGGGAAAGUAUUAUGUUACGCCGUUCGGAUCUGCACUUCCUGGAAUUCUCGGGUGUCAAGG`, the log2 enrichment was -1.04.
The log2 enrichment of `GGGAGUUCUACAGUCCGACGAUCUAACUUUAGAGGAGGAUCUGAUGGAUUUGGCAGUGGACGUGGAUUUGGGGAUGGCUAUAAUGGGUAUGGAGGAGGACCUGGAGGUGGCAAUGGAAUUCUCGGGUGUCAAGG` is reported as 0.0716.

Series 2 — technique: RNA Bind-n-Seq; molecule type: RNA; medium: in vitro; concentration: 365 nM; baseline: no-protein control; direction: higher = stronger binding
Target: RNA binding protein fox-1 homolog 2, RRM domain, GST-SBP tag (RBFOX2, Homo sapiens, UniProt O43251-10, residues 100-194)
Setting: natural RNA segment, single round, ends assumed
Residues (chain): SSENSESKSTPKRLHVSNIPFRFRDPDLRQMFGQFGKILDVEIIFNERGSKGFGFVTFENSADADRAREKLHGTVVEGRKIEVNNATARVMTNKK
`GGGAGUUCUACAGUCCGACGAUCCCCUCUGUACUAAUGACAUUUACAAUUCUAAAAUUUUAUGAAAUUGAAAUGAAAACUAAGAGUUGUAAAACAAAGUAUUUUCUUGGGAAUAUUACUUUAACAUUCAGAUGUGGAAUUCUCGGGUGCCAA` — result for “RBNS enrichment (R)”: 0.573.
`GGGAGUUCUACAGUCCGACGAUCUUAAACAGAUAAAGCCCUUCAUGGUCCUGGCUGAGGAAGAGUCUUGCUAGGGGGAUUCAGGGAAGACCCGUGUUACCAGCUCUUACCCUUUAUCUGGACAGCUCUCCUACUGGAAUUCUCGGGUGCCAA`: “RBNS enrichment (R)” 0.57.
`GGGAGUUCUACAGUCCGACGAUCGCAUGUCCAAGAUGACCCUUCUCCCCUACCUCUACCUAGCCACUGGCAGGGAGGGGAGACAGUGGUGAUAGCAGCAGCACUCUAGGCAUGGUGAACGCCUGGGACCAAGCUGGAAUUCUCGGGUGCCAA`: “RBNS enrichment (R)” 0.81.
`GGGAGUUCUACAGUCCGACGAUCUGGAGGAAAGCUCUUCUUGGUACAGUCUCCUCUUCCCACCAACUCCUCACGACUCUUCAUCAACCAAGGAGCCUCCAGACAGAGAGGAGGAAGAAGGAAUUCACUAGGUUUGGAAUUCUCGGGUGCCAA`: “RBNS enrichment (R)” 0.399.
`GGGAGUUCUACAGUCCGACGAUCUUCGACUACUGCUCCUGUGGCAGGAGGCUUUGGGUGGCUCACUACUGAACACAUGUGUAUGAUACUAAAGACGGUAUUAAAAUGGAGCGACGUUUAUUUCAUCUCUUGUUUGGAAUUCUCGGGUGCCAA` — result for “RBNS enrichment (R)”: 0.864.
`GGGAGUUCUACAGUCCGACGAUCUCAGACCUUCCCAUCUCCCUGGCUUUCCAUGCUCCUCUCCCUCCACCUCCUGGCUUCAACUGGGUGAGGGCCGUAUUCCUGCCACUCUGCUCCGCCUCAGCCUUGAGAACUGGAAUUCUCGGGUGCCAA` — result for “RBNS enrichment (R)”: 0.358.
`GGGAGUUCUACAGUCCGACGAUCUUCGUUUUUUUAACUGUUCAUUCCUUUGUGCAGAGUGUAUAUCUCUGCCUGGGCAAGAGUGUGGAGGUGCCGAGGUGUCUUCAUUCUCUCGCACAUUUCCACAGCACCUGUGGAAUUCUCGGGUGCCAA`: “RBNS enrichment (R)” 0.186.
For `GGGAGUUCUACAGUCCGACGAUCUUAUUCAUACAAAAAAAUGAGUUGAUGAUGGAAAAGCAAGUCAUAAUCAUCUAAUUGUUUUUGUCUAGGUCGAGAAUGAAUGUUAGCUGAUGAAAUAAACCCUGACAAGGUGGAAUUCUCGGGUGCCAA`, “RBNS enrichment (R)” read 0.528.

Series 3 — target: MAFG, bZIP domain (human); technique: DHFR protein complementation; medium: yeast; baseline: wild-type JUN-FOS pair; direction: higher = stronger binding
Setting: single substitutions, most at no-binding floor
Starting sequence: JUN, bZIP domain (human); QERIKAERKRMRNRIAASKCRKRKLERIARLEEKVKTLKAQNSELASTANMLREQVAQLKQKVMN; partner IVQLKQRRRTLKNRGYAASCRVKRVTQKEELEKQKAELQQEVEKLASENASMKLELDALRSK
`V56H` gave a binding fitness of -1.39 natural log.
`Q41K` gave a binding fitness of -1.61 natural log.
With `E32K` the binding fitness was -1.45 natural log.
`A29I` has a binding fitness of -1.17 natural log.
The binding fitness of `L45P` is reported as -1.49 natural log.
`M51S` gave a binding fitness of -1.22 natural log.
The binding fitness of `V35E` is reported as -1.52 natural log.
For `A29S`, the binding fitness was -1.56 natural log.
With `M51R` the binding fitness was -1.39 natural log.
`K34W` gave a binding fitness of -1.55 natural log.
`A49F` gave a binding fitness of -1.42 natural log.
With `S47R` the binding fitness was -1.39 natural log.
The binding fitness of `S43A` is reported as -1.3 natural log.
With `K36L` the binding fitness was -1.32 natural log.
`A57S` gave a binding fitness of -1.48 natural log.
For `K34E`, the binding fitness was -1.19 natural log.
`L38V` gave a binding fitness of -1.49 natural log.
For `A29N`, the binding fitness was -1.5 natural log.
`I28V` has a binding fitness of -1.43 natural log.

Series 4 — target: CCNB2, cyclin fold, Cln2 fusion (human); technique: yeast growth competition, sequencing; medium: yeast; setting: weak parent motif; baseline: not given; direction: higher = stronger binding
Starting sequence: RBL1 docking peptide (human); GSAKRRLFGEDPP; partner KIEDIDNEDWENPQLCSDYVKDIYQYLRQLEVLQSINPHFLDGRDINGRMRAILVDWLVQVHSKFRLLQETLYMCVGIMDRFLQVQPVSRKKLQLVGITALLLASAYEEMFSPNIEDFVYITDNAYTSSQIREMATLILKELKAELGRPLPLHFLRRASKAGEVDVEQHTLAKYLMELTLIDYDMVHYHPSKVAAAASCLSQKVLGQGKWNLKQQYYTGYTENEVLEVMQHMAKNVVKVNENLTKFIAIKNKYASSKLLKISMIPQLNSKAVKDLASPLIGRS
`R6C`: “normalised enrichment score” -0.0578.
Under “normalised enrichment score”, `G1W` is recorded as 0.645.
For `K4E`, “normalised enrichment score” read -0.474.
Under “normalised enrichment score”, `D11G` is recorded as 0.335.
For `G1D`, “normalised enrichment score” read 0.0691.
`G9E`: “normalised enrichment score” -0.0298.
`L7C`: “normalised enrichment score” 0.355.
For `F8G`, “normalised enrichment score” read 0.239.
`P12D`: “normalised enrichment score” -0.0793.
`F8L` — result for “normalised enrichment score”: 0.0428.
Under “normalised enrichment score”, `S2W` is recorded as -0.225.
`S2Q`: “normalised enrichment score” 0.432.
`D11V` — result for “normalised enrichment score”: 0.279.
`D11K` — result for “normalised enrichment score”: 0.545.
Under “normalised enrichment score”, `P13S` is recorded as -0.0584.
Under “normalised enrichment score”, `R5E` is recorded as -0.766.
`K4L` — result for “normalised enrichment score”: -0.365.
`R6M` — result for “normalised enrichment score”: -0.29.
`D11Q`: “normalised enrichment score” 0.633.
`A3S` — result for “normalised enrichment score”: 0.143.
For `L7F`, “normalised enrichment score” read 0.111.
For `G1Y`, “normalised enrichment score” read 1.31.
`P13D`: “normalised enrichment score” -0.0763.
For `E10C`, “normalised enrichment score” read 0.0589.
`R6N` — result for “normalised enrichment score”: 0.555.

Single results of other studies
`PhoQ, residues 284 288 289 292 302 303 SLCLSL` gave a fold induction of 1.57 (PhoP, residues 12 14 15 18 19 LHSVW (Escherichia coli, UniProt P23836); Sort-seq, refers to: YFP reporter; E. coli; PhoQ-PhoP variant library, with: 10 µM Mg2+; baseline: high Mg2+ state, higher = stronger signaling).

Repeated from above (series 1):
`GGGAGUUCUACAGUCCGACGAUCAGUCCUGUGCUACACAUCGUAUGUACCGAAUCGGGGAAAAAGGGGAGGGGUUUGGGGAAAGUAUUAUGUUACGCCGUUCGGAUCUGCACUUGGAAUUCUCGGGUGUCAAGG` gave a log2 enrichment of -0.714.
For `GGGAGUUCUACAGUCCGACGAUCUCAAGUCCUGUGCUACACAUCGUAUGUACCGAAUCGGGUGGGAAAAAGGGUGGGAAAGUAUUAUGUUACGCCGUUCGGAUCUGCACUUCCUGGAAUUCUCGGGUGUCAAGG`, the log2 enrichment was -1.04.
`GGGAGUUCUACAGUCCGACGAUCUCCUGUGCUACACAUCGUAUGUACCGAAUCGGGUUUUUUUGGGAAAAAGGGAAAAAGGGAAAGUAUUAUGUUACGCCGUUCGGAUCUGCAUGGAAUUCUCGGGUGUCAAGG` gave a log2 enrichment of -1.69.
`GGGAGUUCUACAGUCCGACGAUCCAAGUCCUGUGCUACACAUCGUAUGUACCGAAUCGGGGUUUGGUUUGGUUUGGGGAAAGUAUUAUGUUACGCCGUUCGGAUCUGCACUUCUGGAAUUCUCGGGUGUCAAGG` has a log2 enrichment of -0.866.
For `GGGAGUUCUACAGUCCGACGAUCCAAGUCCUGUGCUACACAUCGUAUGUACCGAAUCGGAAAGGAAAGGAAAAAAAGGAAAGUAUUAUGUUACGCCGUUCGGAUCUGCACUUCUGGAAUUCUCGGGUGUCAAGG`, the log2 enrichment was -0.347.
The log2 enrichment of `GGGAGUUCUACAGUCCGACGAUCUAACUUUAGAGGAGGAUCUGAUGGAUUUGGCAGUGGACGUGGAUUUGGGGAUGGCUAUAAUGGGUAUGGAGGAGGACCUGGAGGUGGCAAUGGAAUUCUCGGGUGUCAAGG` is reported as 0.0716.
With `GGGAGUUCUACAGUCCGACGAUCUAACUUUAGAGGAGGAUCAGAUGGAUAUGGCAGUGGACGUGGAUUUGGGGAUGGCUAUAAUGGGUAUGGAGGAGGACCUGGAGGUGGCAAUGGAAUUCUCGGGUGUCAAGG` the log2 enrichment was 0.435.
`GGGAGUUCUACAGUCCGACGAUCCUCCUGGAGUGGAUCCGGCGCACCAUCCCCUGGCUGGAGGACCGUGUGCCCCAAAAGACUAUCCAGGAGAUGCAGCAGAAGCUGGAGGACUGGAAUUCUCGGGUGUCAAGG` gave a log2 enrichment of -4.27.
